Assay results pooled from the literature.
Every numbered part comes from another study and shows a few of its results, in no order.

Sample 1
Target: Interferon regulatory factor 5, full length, phosphomimetic (IRF5, Homo sapiens, UniProt Q13568-2, residues 1-514, S451D/S453D/S456D/S462D)
Method: protein-binding microarray
Molecule type: double-stranded DNA, one strand shown
Medium: in vitro
Concentration: 940 nM top
Setting: 60-bp whole probe
Added: salmon DNA 0.4 mg/ml
Baseline: random background probes
Reading: higher = stronger binding
Constant ends, left off below: GCCTAGCAC … GTCTTGATTCGCTTGACGCTGCTG
Sequence	fitted relative affinity
TCATCTTTCTGTTTTCTACTGTGCTAG	2.95 z-score
TTAGGTTTGGGACTGGGTTAGTGCTAG	-0.0886 z-score
TTAGATTTCGAGTATCGATTAGTGCTA	4.26 z-score
TTAGATTTCGGGACTGCATTAGTGCTA	0.808 z-score
GACGGTATCCTACAGCTGACGTGCTAG	-0.154 z-score
TTAGGTCTCTTTCTCCTTTAGTGCTAG	1.06 z-score
GACGATTTCGGGAGTGGAGACGTGCTA	0.373 z-score
TTAGGAATCGACTATCGGTTAGTGCTA	0.509 z-score
TCAAATCTTTTTCCCTAACTGTGCTAG	1.16 z-score
GACGGTTTCGACTTTCGGGAAGTGCTA	7.34 z-score
GACGGTGTCGGACTGGGGACGTGCTAG	-0.144 z-score
TCACTTCTCGAGTGCCGGACTGTGCTA	0.38 z-score
GATGAACTGGGGTATCGAGACGTGCTA	1.16 z-score
CTGGTCCTCCTGACTGGGGTGGTGCTA	-0.204 z-score
GAGGGTATCGGTCTCGGGACGTGCTAG	6.18 z-score
ATGTTTGTCACTCTCAGAATGTGCTAG	1.04 z-score
TCATAAATCTTTTTCCCACTGTGCTAG	0.91 z-score
TTAGGCATCGGTCTCGGTTAGTGCTAG	1.81 z-score
GACGATTCCAGTTTCGAGCCGTGCTAG	3.42 z-score
TTCTCTCTGGCCCTCCTGAGGTGCTAG	0.962 z-score
TTAGGTTTCGGCATCGGTTAGTGCTAG	9.57 z-score
GGGTGGGAGCCGAAGACGCCGTGCTAG	-0.5 z-score
TTAGATAGCAGACTGGATTAGTGCTAG	-0.749 z-score
TTAGGTATCGGGTTCGGTTAGTGCTAG	5.66 z-score
TTAGGACTGGGGTATGGGTTAGTGCTA	0.202 z-score

Sample 2
Target: Histone acetyltransferase KAT6A, both winged helices, GST fusion (KAT6A, Homo sapiens, UniProt Q92794, residues 1-181)
Method: protein binding microarray
Molecule type: double-stranded DNA, one strand shown
Medium: in vitro
Concentration: not given
Setting: 8-mer, flanks averaged, mean of 2 arrays, mostly near background
Baseline: not given
Reading: higher = stronger binding
Residues (chain): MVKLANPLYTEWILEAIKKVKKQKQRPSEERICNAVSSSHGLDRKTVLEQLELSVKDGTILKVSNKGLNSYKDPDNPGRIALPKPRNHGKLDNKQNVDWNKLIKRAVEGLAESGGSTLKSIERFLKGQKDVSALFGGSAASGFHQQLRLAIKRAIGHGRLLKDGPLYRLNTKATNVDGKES
Sequence	E-score
GCATCAAA	0.0398
GTATTTGA	-0.0857
CATTACAG	-0.0552
ACACGAAC	0.0764
GGAAAGGA	0.00489
TCATGCGA	0.017
GCGTCCAA	0.0517
ATCACCGC	0.218
AAATACCT	-0.0939
GTTATAAC	0.159
CATCTATC	-0.0565
CTCTTGCA	-0.16
ACGCTAGT	0.0843
ACTTTTGC	-0.0708
CCCGAGAC	0.142
CAGTAGAA	-0.247
ATTCATCG	0.0248

Sample 3
Target: RING finger protein unkempt homolog, zinc fingers 1-6, GST-SBP tag (UNK, Homo sapiens, UniProt Q9C0B0, residues 30-357)
Method: RNA Bind-n-Seq
Molecule type: RNA
Medium: in vitro
Concentration: not given
Setting: RNA with constant flanks, human-mouse chimeric sites, ends assumed
Baseline: input RNA pool
Reading: higher = stronger binding
Constant ends, left off below: GGGAGUUCUACAGUCCGACGAUC … CAACAGAGGAUUGAGCAUCA
Residues (chain): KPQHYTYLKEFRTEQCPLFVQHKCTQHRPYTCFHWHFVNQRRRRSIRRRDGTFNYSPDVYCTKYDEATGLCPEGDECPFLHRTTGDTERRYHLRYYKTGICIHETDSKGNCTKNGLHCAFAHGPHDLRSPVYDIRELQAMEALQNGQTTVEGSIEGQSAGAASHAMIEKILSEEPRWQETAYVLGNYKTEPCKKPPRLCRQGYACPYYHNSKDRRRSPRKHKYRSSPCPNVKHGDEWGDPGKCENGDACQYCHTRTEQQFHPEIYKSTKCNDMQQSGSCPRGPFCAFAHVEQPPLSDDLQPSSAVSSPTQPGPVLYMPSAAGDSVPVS
Sequence	bound/input enrichment
GAACCUGCUCUCUCUGAUGAAGAUGAGGACAGUGAUGAUGAUGUUGAACCCAUUUCUGAAUUUCGAUUUGUGCCCAGUGAUAAGUCAGCAUUGGAGGCGAUGUUCACAGCAAUGUGUGAG	0.209 ratio
CAACCUCAGAGCCCAGACUUCCUGGAUAUUACCAACCCUAAAGCGGUAUUAGAAAAUGCAUUGAGAAACUUCGCCUGUCUGACCACCGGAGAUGUGAUUGCUAUCAACUACAAUGAGAAG	0.4 ratio
GAGCGUCUUGCCCGCACCGGGAUCAUAGUGACCACUAGUGAGGCUGUCCUCCUACAGCUGGUGGCUGACAAAGACCACCCGAAGUUCAAGGAAAUUCAGAACCUAAUUAAGGCGAGUGCC	0.143 ratio
GAGCGUCUUGCCCGCACUGGGAUCAUCGUGACCACGAGUGAGGCUGUCCUCCUACAGCUGGUGGCUGACAAAGACCACCCGAAGUUCAAGGAAAUUCAGAAUCUAAUUAAGGCGAGUGCC	0.0969 ratio
GAGCCCAGUCGGCAGUUUGUAAAGGACUCAAUUCGGCUGGUUAAAAGAUGCACUAAACCCGACAGAAAAGAAUUCCAGAAGAUUGCCAUGGCUACAGCUAUAGGAUUUGCUAUCAUGGGA	0.201 ratio
GGACAUCUGUCAAAUUGUAUUUCCCGUGUGAAACAAGUGAACACUCUGAUACACUUCAUCUGCUUGUACAUCUGUAUGAUAGAGAAAUGUAAAUAUGUUAAUCCAAGAUGAAUUCAACUU	0.28 ratio
CCCCAAUACCAUUUGCAGGUCUGGAACUGCACUCUCUUUAAAGUUUUAUAUGCAUAUAUUUUAGGGCUGUAGAUUUAUUUUCCUGGUUUUGUUUUUCAUUGCUGACUUUUGAGCACAGAA	2.24 ratio
UUUGUAUUUAUGCUAAGCACACGUGCUGGUGGUCUGGGCAUCAAUCUUGCAACUGCUGAUGUAGUCAUUUUGUAUGAUUCUGAUUGGAAUCCGCAAGUUGAUCUUCAGGCUAUGGACCGU	0.166 ratio
AAGGUGAUGACUAUGUUUGUCCAACGACAGGUAUUUUCUGAGAACAAAGAUGAGAUUGCGUUAGUCCUCUAUGGCACAGAUGGCACUGAUAAUGCCCUUGCUGGCAAGGACCAGUAUCAG	0.0993 ratio
CCAAUCGUGGAGCAGUACUUGAAGACAAAGAAAAAUUCUAAUAAUUUAAUCAUCAAGUACAUUAGCUGCCGCCUGCUGACACUCAUCAUUAUACUGUUAGCGUGUAUCUACUUGAGCUAU	0.203 ratio
UUUGUUUUUAUGCUAAGCACACGUGCUGGUGGUCUGGGCAUCAAUCUUGCAACUGCUGAUGUAGUCAUUUUAUAUGACUCAGAUUGGAAUCCGCAAGUUGAUCUUCAGGCUAUGGACCGU	0.136 ratio

Sample 4
Target: Sal-like protein 4, full length isoform B (SALL4, Homo sapiens, UniProt Q9UJQ4-2, residues 1-616)
Method: universal PBM
Molecule type: double-stranded DNA, one strand shown
Medium: in vitro
Concentration: not given
Setting: 8-mer, flanks averaged, mean of replicates
Reading: higher = stronger binding
Construct (chain): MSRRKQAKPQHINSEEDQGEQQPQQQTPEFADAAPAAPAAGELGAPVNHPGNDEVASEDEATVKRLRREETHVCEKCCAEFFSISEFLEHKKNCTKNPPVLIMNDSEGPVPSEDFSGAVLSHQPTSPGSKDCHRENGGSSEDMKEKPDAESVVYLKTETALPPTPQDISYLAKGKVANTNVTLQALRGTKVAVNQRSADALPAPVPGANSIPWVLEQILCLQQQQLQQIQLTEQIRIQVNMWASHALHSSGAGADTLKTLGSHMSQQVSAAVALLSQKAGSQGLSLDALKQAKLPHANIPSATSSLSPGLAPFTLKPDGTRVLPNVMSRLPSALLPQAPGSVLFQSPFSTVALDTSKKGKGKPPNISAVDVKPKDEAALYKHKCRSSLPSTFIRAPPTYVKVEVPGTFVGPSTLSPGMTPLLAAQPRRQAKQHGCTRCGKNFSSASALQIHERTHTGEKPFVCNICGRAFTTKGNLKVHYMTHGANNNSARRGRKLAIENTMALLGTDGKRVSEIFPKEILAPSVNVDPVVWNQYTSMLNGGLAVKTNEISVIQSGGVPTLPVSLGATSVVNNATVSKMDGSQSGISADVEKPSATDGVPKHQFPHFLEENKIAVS
Sequence	E-score
ATGAATGG	0.0221
CGCATTTA	0.101
ACAGCAGG	-0.073
CGAGGTCC	-0.318
GATACCCA	-0.00746
TATGGCCA	0.0949
GGTTAACA	0.199
CGAAACAC	0.00076
GCAACTGC	-0.0741
AGGCAACC	-0.187
CAAGCGCG	-0.0468
CCTCCGCC	-0.273
ATGATCAC	0.198
AAGGAAAG	0.0753
CCGCCTCA	-0.295
AGCTTGCG	-0.201
CAGACGGA	-0.164
GTCTCCGA	-0.158
CTACACGC	-0.0806
ACCAAGTC	-0.108

Sample 5
Target: RNA binding protein fox-1 homolog 2, RRM domain, GST-SBP tag (RBFOX2, Homo sapiens, UniProt O43251-10, residues 100-194)
Method: RNA Bind-n-Seq
Molecule type: RNA
Medium: in vitro
Concentration: 365 nM
Setting: natural RNA segment, single round, ends assumed
Baseline: no-protein control
Reading: higher = stronger binding
Constant ends, left off below: GGGAGUUCUACAGUCCGACGAUC … UGGAAUUCUCGGGUGCCAA
Residues (chain): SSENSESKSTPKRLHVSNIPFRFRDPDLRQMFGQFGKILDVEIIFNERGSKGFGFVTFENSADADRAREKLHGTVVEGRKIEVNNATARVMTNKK
Sequence	RBNS enrichment (R)
AUUUUUGGCGGCCCGUAAGUAGGCUGGCUAGUCCAGGAUACUGUGGAAUAGCCACCUCUUGACCAGUCAUGCCUGUGUGCAUGGACUCAGGGCCACGGCCUUGGCCUGGG	0.392
CCCGAAGGGAGCUCUGGACCCUCAGAGCCCCUGCAGAGGACGGAUCUAGCUCCUGUAUAUAUAUUUUAUUGCAUGCACUGUGACCUUGGGGGGAGAACAGAAGGGGGACG	21.2
UUUUUUAAAGCAAACUUGUCCUUUGGUUUUGCAGAACAGGCCUGCUCCCUCUCAUCUAGCCCAUCAUUUCUUGGGGCCUGAACCCCAGUGGUCCAAAGUAUUGCUUGUGA	1.77
GGAUAAACAGUCAAACCUUUAUCCUCUAGAAUUUUGGCAAUGUUGACUAAGAAACAGAGUCCAAGCAGAGAAGGUAGGAACCCUCCAUAGCUCUCUGCCCUGAUGUGUGG	0.29
GAAGAGGUAUGUGAGACCCAGUUCAACGACAGCAUGAUUUUUUAAAUGGCUGUAAGUUAUGAUAAGGAAAUGUACUGAUUGCCAGUGCACUCCACCCUCAUUACGUCACC	0.594
GGGCAAUUUGUUGAUGAGGUGAAUUAGUUAUCCCUCUUCUUGUAGAAGACCCUUUAGCUACCCCUCCUAUUGCUACUCGUGCACCUUCCAUUACACUCCCCCCUACCUUU	0.603
CCUUUUAAUGAUGAGGGUAACUAUUUCAGUUGUGAGCCUUCUAGGGCCCCAGGCUGGGAGGCUCAGAGGACUGAAUCUGGGACCUGUGUUCCCCCCGGCAGGCAGGGACA	0.489
AGAGUGAGAUUGGUAUUCAUUUACCUAUGUUGCGCCAGUUUGUGUUGCAGUUUACCAAUUCAAUAUAGCCCUGCAUUUAAAGUUCCUUUUUAAGAUUUGUGGAUUUUAUU	0.324
UAGGAAGAUGCACAUUGAUGUGGGGUUUUGAUGUGUCUGAUUUUGACUACUCAAGCUCUGUUUACAGAAGAAAAUUGAAUGGCGAGGGUGUGGCCAUAUGAACUGACUAG	1.19
UUUUAGGCAACUGCUUUUUCCAUGUUCUGAGAUCUACGGGCUACAACAAAUUUUAUCAGCAGUGUUUUUUGUUUUUUUGAGAUGGAGACUUGCUCUGUCGCCCAGGCUGG	0.758
UGAGUCUUGGAAAACACCCCAAACCCGGAAAUGUGUGGGAAAAAGAAAACAAAAACUUUCCAAAUUCCACCAGUCCUGUGUAGUUUGUUCGGGGUGGGUGCUCUCAGUGG	1.21
GAGAGCUGCCUUAUAUUCCUACAUUCCAGGCCAGAACCAGCACAGGACUGAACACAUCCCUGGUUGUAAUGUCCAUUUCCAUCUUCCCCGUCUCCCUUUCCACAUCAAGG	0.863
